Published values gathered from unrelated publications.
± gives the spread as reported.

Compound | test | system | setting | scale | measurement | result
CCCC[C@@H]1NC(=O)[C@@H](NC(=O)[C@H](CCC(=O)O)NC(=O)CNC(=O)CN2CCN(CC(=O)O)CCN(CC(=O)O)CCN(CC(=O)O)CC2)CCCCNC(=O)C[C@@H](C(N)=O)NC(=O)[C@H](C(C)C)NC(=O)[C@@H]2CCCN2C(=O)[C@H](CCCNC(=N)N)NC(=O)CNC(=O)[C@H](Cc2c[nH]c3ccccc23)NC(=O)[C@H](CCCNC(=N)N)NC(=O)[C@@H](Cc2ccccc2)NC(=O)[C@H](Cc2c[nH]cn2)NC(=O)[C@H](CCC(=O)O)NC1=O [gallium-67 labelled] |  | C57 mice, B16/F1 flank melanoma | intravenous, 2 h, together with: blocking peptide 10 µg | reference: tumour over blood | tissue ratio | 1.54
COCCOCCOCCOc1ccc(/C=C/C2=[N+]3C(=C(c4cc(OC)cc(OC)c4)c4c(C)c(I)c(/C=C/c5ccc(OCCOCCOCCOC)cc5)n4[B-]3(F)F)C(C)=C2I)cc1 |  | THF |  |  | Stokes shift | 440 cm⁻¹
C=CC(=O)Nc1cc(Nc2nccc(-c3cn(C4CC4)c4ccccc34)n2)c(OC)cc1N(C)CCNC | radio-HPLC | human male, urine | oral, 110 mg, 0 to 48 h, sample holds 2.97% dose | reference: sample radioactivity | share of radioactivity | 26.7%
CC(=O)N[C@@H](CCCCN)C(=O)NCCCCCC(=O)N[C@H](C(=O)N[C@@H](CO)C(=O)N[C@@H](Cc1ccccc1)C(=O)N[C@]1(C)CCCCCCC=CCCC[C@@](C)(C(=O)N[C@@H](CCC(=O)O)C(=O)N[C@@H](CC(N)=O)C(=O)N[C@@H](Cc2ccccc2)C(N)=O)NC(=O)[C@H](CC(C)C)NC(=O)[C@H](CC(C)C)NC(=O)[C@H](C)NC(=O)[C@H](Cc2c[nH]c3ccccc23)NC(=O)[C@H](Cc2ccc(O)cc2)NC(=O)[C@H](CCC(=O)O)NC1=O)[C@@H](C)O | RP-HPLC C12 |  | 35 min gradient 5–95% acetonitrile | higher = more hydrophobic | adjusted retention time | 20 min
CC(C)(O)c1ncc([S@](N)(=O)=NC(=O)Nc2c3c(cc4c2CCC4)CCC3)s1 |  | healthy human subjects |  | reference: human liver blood flow | apparent oral clearance | ≤ 2%
CCCC(CCC)NC(=O)c1ccc(OC2OC(C(=O)O)C(O)C(O)C2O)c(O)c1 (stereo not shown) | LC-MS extracted ion chromatogram | Sprague-Dawley rat, male and female, pooled plasma | oral, 200 mg/kg, 1 h |  | peak area | 1.52e+06 cps
O=C(CCc1ccc(CNC(C(=O)OC2CCCC2)C2CCCCC2)cn1)NO (stereo not shown) |  | human, plasma | oral, 40 mg once daily, day 7, geometric mean |  | AUC(0-t) | 229 ng·h/mL
COc1cc(-c2nc3ccccc3s2)cc(CN2CCN(CC(=O)OC(C)C)CCN(CC(=O)OC(C)C)CC2)c1O | UV-Vis pH titration |  | 25 °C, ionic strength 0.1 M NaCl |  | pKa4 | 12
CNC(=O)N[C@]1(C)CCC[C@@]2(C)C3CC[C@@]4(C)C[C@]3(CCC21)CC4=O (single isomer, unassigned) |  | rat plasma | 1.5 ng/mL, freeze-thaw stability, three cycles |  | measured concentration | 1.47 ± 0.13 ng/mL
COCCOCCOCCOCCC(=O)NCc1cc(CNC(=O)CCOCCOCCOCCOC)cc(-c2cc3cc4nc(c(-c5ccc(CCC(=O)O)cc5)c5[nH]c(cc6nc(c(OC)c2[nH]3)CC6(C)C)cc5-c2cc(CNC(=O)CCOCCOCCOCCOC)cc(CNC(=O)CCOCCOCCOCCOC)c2)CC4(C)C)c1 |  | DMF | room temperature |  | Qy absorption maximum | 726 nm
CCN(CC)c1ccc2c(-c3ccc(S(=O)(=O)NCCNC(=O)CN4CCN(CC(=O)[O-])CCN(CC(=O)O)CCN(CC(=O)[O-])CC4)cc3S(=O)(=O)[O-])c3ccc(=[N+](CC)CC)cc-3oc2c1.[64Cu+2] | microPET imaging | athymic nude mice, U-87 MG glioma xenograft | 250 µCi, 0.5 h post-injection |  | tumour uptake | 6.06 ± 0.07 %ID/g
O=C(O)c1cc2cc(O)ccc2n1Cc1ccc(Cl)c(C(F)(F)F)c1 |  | male Wistar Hannover rat, serum | oral, 200 mg/kg, single dose, peak range |  | ALT | 67 to 102 U/L
CCC(C)n1c(C(=O)Nc2cnc(C(=O)NC)n(CC(C)C)c2=O)ncc(NC(=O)c2ncc(NC(=O)c3ccccc3)c(=O)n2Cc2ccc(OC)cc2)c1=O (stereo not shown) | HPLC | Tween 20/ethanol/phosphate buffer | 24 h, pH 2, 37 °C |  | decomposition | 1.3%
COc1ccc([C@@H]2CC(=O)c3c(O)cc(O[C@@H]4O[C@H](CO[C@@H]5O[C@@H](C)[C@H](O)[C@@H](O)[C@H]5O)[C@@H](O)[C@H](O)[C@H]4O)cc3O2)cc1O |  | rat plasma | 31.25 ng/mL, three freeze-thaw cycles |  | measured concentration | 30.47 ± 0.29 ng/mL
COC(=O)C(c1ccccc1Cl)N1CCC(SCC(=O)c2cccc(OC)c2)C(=CC(=O)O)C1 (stereo not shown) | LC-MS/MS | human plasma | 2 ng/mL, 45 days, -80 °C |  | measured concentration | 2 ± 0.1 ng/mL
O=C(O)[C@@H]1C[C@@H](O)CN1C(=O)[C@@H]1CCCN1 | potentiometric titration | water | 37 °C, 0.15 mol/dm3 NaCl |  | pKa3 | 10.5

Compound | test | system | setting | scale | measurement | result
O=C1c2sc(-c3ccc(N4CCC(F)C4)nc3F)nc2CCN1c1cccnc1 (stereo not shown) | PET imaging | rhesus monkey, whole brain |  | reference: peak over 60 min | brain washout ratio | 5.4
COC(=O)C(c1ccccc1Cl)N1CCC(SCC(=O)c2cccc(OC)c2)C(=CC(=O)O)C1 (mixture of isomers) | HPLC-MS/MS | feline EDTA plasma | 100 ng/mL, 24 h, -20 °C, storage stability |  | deviation from nominal | 6%
COc1cc2c(cc1OC)CN(CCCCn1ccc3cc(OCC[18F])ccc31)C2 |  | ICR mice, male, lung | intravenous, 2 min |  | uptake | 61.2 ± 6.95 %ID/g
O=C([O-])CN1CCN(CC(=O)[O-])CCN(CC(=O)NCCc2ccc3c(c2)C2C=CCC2C(c2cc4c(cc2Br)OCO4)N3)CCN(CC(=O)[O-])CC1.[111In+3] (stereo not shown) |  | mice with Hec50 tumour xenograft | 4 h | reference: tumour over muscle | tumour to tissue ratio | 6
COCC1CN(C2CCN(c3cc(OC)c(Nc4ncc(Br)c(Nc5ccc6c(c5P(C)(C)=O)OCCO6)n4)cc3C)CC2)C1 |  | human, plasma | oral, 10 to 240 mg, single dose first-in-human |  | t1/2 | 24.3 to 34.5 h
CCCC[C@H](NC(C)=O)C(=O)N[C@H]1CC(=O)NCCCC[C@@H](C(=O)N[C@@H](C(=O)N2CCC[C@@H]2C(N)=O)C(C)C)NC(=O)[C@H](Cc2c[nH]c3ccccc23)NC(=O)[C@H](CCCN=C(N)N)NC(=O)[C@@H](Cc2ccc3ccccc3c2)NC(=O)[C@@H]2CCCN2C1=O |  | healthy dogs, plasma | subcutaneous, 2.25 mg/kg per day, day 28, 4 h post-dose, median |  | plasma histamine | 17.9 ng/mL
CC(C)C[C@@H]1NC(=O)[C@@H](Cc2ccccc2)NC(=O)[C@H](CCN)NC(=O)[C@@H](NC(=O)[C@H](CN)NC(=O)[C@@H](NC(=O)C(CCN)c2cccc(Cl)c2)[C@@H](C)O)CCNC(=O)[C@H]([C@@H](C)O)NC(=O)[C@H](CCN)NC(=O)[C@H](CCN)NC1=O (stereo partly shown) |  | CD-1 mouse male, kidney | subcutaneous, 17.2 mg/kg, 4 h |  | tissue concentration | 589000 ng/g
C[N+](C)(C)C[C@@H](O)CC(=O)O.O=C([O-])[C@H](O)Cc1ccccc1 | thermogravimetric analysis |  | 5% mass loss, nitrogen |  | decomposition temperature | 76.1 °C
NC12CNCCNCC(NCc3ccc(CNC(=O)CCCC(=O)NCc4ccc(-c5nncnn5)cc4)cc3)(CNCCNC1)CNCCNC2.[64Cu+2] | OLINDA dosimetry | pancreas | 48 h pretargeting interval, together with: huA33-TCO pretargeting |  | mean absorbed dose | 0.0362 rad/mCi
O=C(O)C1CN(Cc2ccc(-c3noc(-c4ccc(OCC[18F])c(C(F)(F)F)c4)n3)cc2)C1 |  | rat, heart | intravenous, 2 h |  | tracer uptake | 0.316 %ID/g
CCOP(=O)(CC(=O)Nc1ccc(S(=O)(=O)N(CC(N)=O)c2ccc(N(CC(N)=O)S(=O)(=O)c3ccc(OC)cc3)c3ccccc23)cc1)OCC |  | male mouse, Aβ1-42-injected AD model, brain | oral, 40 mg/kg, 30 min |  | peak brain concentration | 347 ± 160 ng/mL
C=C(c1cc(F)c(C(=O)O)c(F)c1)c1cc2c(cc1C)C(C)(C)CCC2(C)C |  | Sprague-Dawley rat, male | oral, 100 mg/kg, 6 h, sesame oil vehicle |  | blood cholesterol | 71 ± 12.8 mg/dL
CCOc1ccc2c(c1)C(C)=CC(C)(C)N2c1cc(OCC)cc2c1NC(C)(C)C=C2C | HPLC-fluorescence | Atlantic salmon, flesh | oral, 50 mg/kg feed of ethoxyquin, 90 days |  | residue concentration | 182 ng/g
CCCC[C@H](NC(=O)[C@H](CC(C)C)N(C)C(=O)CNC(=O)[C@@H](NC(=O)[C@H](Cc1ccccc1)NC(=O)[C@H](CCCCN)NC(=O)[C@@H](N)CC(=O)O)C(C)C)C(N)=O |  | anaesthetised minipig | intranasal, 30 or 100 µg/kg |  | mean arterial pressure | no effect
Cn1c(=O)oc2ccc(-c3ccc(CC(C#N)NC(=O)C4CNCCCO4)c(F)c3)cc21 (stereo not shown) | measured: white blood cells in urine | human volunteers | 15 mg single dose, fasted |  | share of subjects with TEAE | 16.7%

A few entries again:
Compound | test | system | setting | scale | measurement | result
CNC(=O)N[C@]1(C)CCC[C@@]2(C)C3CC[C@@]4(C)C[C@]3(CCC21)CC4=O (single isomer, unassigned) |  | rat plasma | 1.5 ng/mL, freeze-thaw stability, three cycles |  | measured concentration | 1.47 ± 0.13 ng/mL
COCCOCCOCCOCCC(=O)NCc1cc(CNC(=O)CCOCCOCCOCCOC)cc(-c2cc3cc4nc(c(-c5ccc(CCC(=O)O)cc5)c5[nH]c(cc6nc(c(OC)c2[nH]3)CC6(C)C)cc5-c2cc(CNC(=O)CCOCCOCCOCCOC)cc(CNC(=O)CCOCCOCCOCCOC)c2)CC4(C)C)c1 |  | DMF | room temperature |  | Qy absorption maximum | 726 nm
CCN(CC)c1ccc2c(-c3ccc(S(=O)(=O)NCCNC(=O)CN4CCN(CC(=O)[O-])CCN(CC(=O)O)CCN(CC(=O)[O-])CC4)cc3S(=O)(=O)[O-])c3ccc(=[N+](CC)CC)cc-3oc2c1.[64Cu+2] | microPET imaging | athymic nude mice, U-87 MG glioma xenograft | 250 µCi, 0.5 h post-injection |  | tumour uptake | 6.06 ± 0.07 %ID/g
O=C(O)c1cc2cc(O)ccc2n1Cc1ccc(Cl)c(C(F)(F)F)c1 |  | male Wistar Hannover rat, serum | oral, 200 mg/kg, single dose, peak range |  | ALT | 67 to 102 U/L
CCC(C)n1c(C(=O)Nc2cnc(C(=O)NC)n(CC(C)C)c2=O)ncc(NC(=O)c2ncc(NC(=O)c3ccccc3)c(=O)n2Cc2ccc(OC)cc2)c1=O (stereo not shown) | HPLC | Tween 20/ethanol/phosphate buffer | 24 h, pH 2, 37 °C |  | decomposition | 1.3%
